Measured values collected from several papers.
Compare with care: the assays were run in different laboratories. ± marks the error that the study gave.
Spike glycoprotein: Spike glycoprotein (Severe acute respiratory syndrome coronavirus 2, UniProt P0DTC2)
B1: cytochrome c peroxidase H52N; sequence looked up; chain TTPLVHVASVEKGRSYEDFQKVYNAIALKLREDDEYDNYIGYGPVLVRLAWNTSGTWDKHDNTGGSYGGTYRFKKEFNDPSNAGLQNGFKFLEPIHKEFPWISSGDLFSLGGVTAVQEMQGPKIPWRCGRVDTPEDTTPDNGRLPDADKDADYVRTFFQRLNMNDREVVALMGAHALGKTHLKNSGYEGPWGAANNVFTNEFYLNLLNEDWKLEKNDANNEQWDSKSGYMMLPTDYSLIQDPKYLSIVKEYANDQDKFFKDFSKAFEKLLENGITFPKDAPSPFIFKTLEEQGL
B2: cytochrome c peroxidase H52D; sequence looked up; chain TTPLVHVASVEKGRSYEDFQKVYNAIALKLREDDEYDNYIGYGPVLVRLAWDTSGTWDKHDNTGGSYGGTYRFKKEFNDPSNAGLQNGFKFLEPIHKEFPWISSGDLFSLGGVTAVQEMQGPKIPWRCGRVDTPEDTTPDNGRLPDADKDADYVRTFFQRLNMNDREVVALMGAHALGKTHLKNSGYEGPWGAANNVFTNEFYLNLLNEDWKLEKNDANNEQWDSKSGYMMLPTDYSLIQDPKYLSIVKEYANDQDKFFKDFSKAFEKLLENGITFPKDAPSPFIFKTLEEQGL
Chain of UniProt P05177 (whole entry, looked up): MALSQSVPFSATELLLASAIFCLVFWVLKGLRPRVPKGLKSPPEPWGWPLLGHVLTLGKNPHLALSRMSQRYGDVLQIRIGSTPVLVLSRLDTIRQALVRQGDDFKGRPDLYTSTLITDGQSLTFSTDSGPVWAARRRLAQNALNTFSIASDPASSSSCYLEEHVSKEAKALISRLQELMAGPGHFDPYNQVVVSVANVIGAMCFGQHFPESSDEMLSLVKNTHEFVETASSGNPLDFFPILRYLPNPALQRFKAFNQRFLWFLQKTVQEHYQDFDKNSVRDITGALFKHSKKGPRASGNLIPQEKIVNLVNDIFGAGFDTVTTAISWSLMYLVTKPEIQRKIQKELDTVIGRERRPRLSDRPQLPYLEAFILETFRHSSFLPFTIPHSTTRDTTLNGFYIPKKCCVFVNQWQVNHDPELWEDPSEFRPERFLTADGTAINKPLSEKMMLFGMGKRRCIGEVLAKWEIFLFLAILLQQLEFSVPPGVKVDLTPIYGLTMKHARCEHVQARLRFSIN
Chain of UniProt P0A8V2 (whole entry, looked up): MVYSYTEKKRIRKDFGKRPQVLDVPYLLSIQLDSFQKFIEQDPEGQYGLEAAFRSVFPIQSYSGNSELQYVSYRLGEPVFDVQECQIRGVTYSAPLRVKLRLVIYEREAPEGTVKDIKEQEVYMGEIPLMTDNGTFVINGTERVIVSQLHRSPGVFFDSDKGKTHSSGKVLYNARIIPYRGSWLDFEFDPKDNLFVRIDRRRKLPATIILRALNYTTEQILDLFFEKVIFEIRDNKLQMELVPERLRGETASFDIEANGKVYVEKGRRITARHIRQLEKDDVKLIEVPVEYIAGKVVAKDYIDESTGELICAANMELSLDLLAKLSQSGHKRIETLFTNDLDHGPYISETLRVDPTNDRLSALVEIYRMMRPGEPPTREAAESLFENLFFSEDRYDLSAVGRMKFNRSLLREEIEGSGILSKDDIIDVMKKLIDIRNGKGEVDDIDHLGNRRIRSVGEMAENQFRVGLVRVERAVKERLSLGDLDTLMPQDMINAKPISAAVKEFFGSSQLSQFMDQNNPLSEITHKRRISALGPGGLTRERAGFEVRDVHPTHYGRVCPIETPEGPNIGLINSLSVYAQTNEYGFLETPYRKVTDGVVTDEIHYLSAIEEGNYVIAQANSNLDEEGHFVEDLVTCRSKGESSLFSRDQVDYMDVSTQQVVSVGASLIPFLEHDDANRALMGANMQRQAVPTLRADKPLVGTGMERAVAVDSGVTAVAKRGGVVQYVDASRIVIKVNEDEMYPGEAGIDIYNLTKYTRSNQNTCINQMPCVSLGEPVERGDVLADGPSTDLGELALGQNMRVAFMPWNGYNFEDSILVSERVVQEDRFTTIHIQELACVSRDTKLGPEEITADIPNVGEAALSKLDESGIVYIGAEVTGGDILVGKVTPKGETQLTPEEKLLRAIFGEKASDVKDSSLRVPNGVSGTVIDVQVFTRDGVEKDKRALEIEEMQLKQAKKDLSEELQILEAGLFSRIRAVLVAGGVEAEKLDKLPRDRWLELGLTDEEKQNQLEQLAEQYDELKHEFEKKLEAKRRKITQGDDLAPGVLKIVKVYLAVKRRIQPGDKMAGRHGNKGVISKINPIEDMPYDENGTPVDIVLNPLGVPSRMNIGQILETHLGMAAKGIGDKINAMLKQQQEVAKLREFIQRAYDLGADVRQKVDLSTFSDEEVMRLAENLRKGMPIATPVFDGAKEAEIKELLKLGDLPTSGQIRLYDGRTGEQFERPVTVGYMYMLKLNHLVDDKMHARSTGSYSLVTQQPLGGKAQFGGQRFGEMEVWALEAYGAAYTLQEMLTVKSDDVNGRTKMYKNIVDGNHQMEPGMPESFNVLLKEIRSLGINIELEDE
Chain of UniProt P0A8T7 (whole entry, looked up): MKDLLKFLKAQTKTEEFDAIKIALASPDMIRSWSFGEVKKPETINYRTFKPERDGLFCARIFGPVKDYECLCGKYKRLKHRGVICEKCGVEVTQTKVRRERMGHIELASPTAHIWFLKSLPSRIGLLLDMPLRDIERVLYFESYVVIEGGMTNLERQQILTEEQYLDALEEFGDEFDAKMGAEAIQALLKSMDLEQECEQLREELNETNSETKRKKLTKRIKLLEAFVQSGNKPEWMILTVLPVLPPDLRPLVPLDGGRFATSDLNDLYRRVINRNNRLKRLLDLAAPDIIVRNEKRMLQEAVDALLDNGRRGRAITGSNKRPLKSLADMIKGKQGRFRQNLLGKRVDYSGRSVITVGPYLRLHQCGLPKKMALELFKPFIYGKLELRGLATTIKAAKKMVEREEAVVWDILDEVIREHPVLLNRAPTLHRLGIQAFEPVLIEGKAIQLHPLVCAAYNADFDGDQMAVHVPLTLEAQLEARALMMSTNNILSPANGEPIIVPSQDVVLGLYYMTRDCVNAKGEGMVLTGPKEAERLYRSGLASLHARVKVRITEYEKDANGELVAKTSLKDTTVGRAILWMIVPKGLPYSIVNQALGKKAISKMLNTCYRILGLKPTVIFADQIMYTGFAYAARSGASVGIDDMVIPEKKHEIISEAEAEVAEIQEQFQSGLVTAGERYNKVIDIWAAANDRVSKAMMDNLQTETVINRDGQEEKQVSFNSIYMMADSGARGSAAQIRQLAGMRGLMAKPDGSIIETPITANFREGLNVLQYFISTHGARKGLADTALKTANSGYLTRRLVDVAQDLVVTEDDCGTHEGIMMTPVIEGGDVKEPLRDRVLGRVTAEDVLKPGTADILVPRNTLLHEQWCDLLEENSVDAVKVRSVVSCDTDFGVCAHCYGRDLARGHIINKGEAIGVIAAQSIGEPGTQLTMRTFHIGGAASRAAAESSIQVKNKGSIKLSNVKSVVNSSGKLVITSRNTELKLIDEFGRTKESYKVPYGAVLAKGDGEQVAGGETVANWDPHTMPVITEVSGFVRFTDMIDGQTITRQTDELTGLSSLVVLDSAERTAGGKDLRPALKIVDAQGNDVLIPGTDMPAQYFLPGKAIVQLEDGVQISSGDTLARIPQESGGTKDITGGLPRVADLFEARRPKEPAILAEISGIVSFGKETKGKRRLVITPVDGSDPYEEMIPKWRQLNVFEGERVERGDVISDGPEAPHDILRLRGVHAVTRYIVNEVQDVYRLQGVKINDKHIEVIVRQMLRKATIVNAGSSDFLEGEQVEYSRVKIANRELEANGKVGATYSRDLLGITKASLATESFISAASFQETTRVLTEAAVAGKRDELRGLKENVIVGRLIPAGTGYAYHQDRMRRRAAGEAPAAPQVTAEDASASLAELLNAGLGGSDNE
Chain of UniProt P42264 (whole entry, looked up): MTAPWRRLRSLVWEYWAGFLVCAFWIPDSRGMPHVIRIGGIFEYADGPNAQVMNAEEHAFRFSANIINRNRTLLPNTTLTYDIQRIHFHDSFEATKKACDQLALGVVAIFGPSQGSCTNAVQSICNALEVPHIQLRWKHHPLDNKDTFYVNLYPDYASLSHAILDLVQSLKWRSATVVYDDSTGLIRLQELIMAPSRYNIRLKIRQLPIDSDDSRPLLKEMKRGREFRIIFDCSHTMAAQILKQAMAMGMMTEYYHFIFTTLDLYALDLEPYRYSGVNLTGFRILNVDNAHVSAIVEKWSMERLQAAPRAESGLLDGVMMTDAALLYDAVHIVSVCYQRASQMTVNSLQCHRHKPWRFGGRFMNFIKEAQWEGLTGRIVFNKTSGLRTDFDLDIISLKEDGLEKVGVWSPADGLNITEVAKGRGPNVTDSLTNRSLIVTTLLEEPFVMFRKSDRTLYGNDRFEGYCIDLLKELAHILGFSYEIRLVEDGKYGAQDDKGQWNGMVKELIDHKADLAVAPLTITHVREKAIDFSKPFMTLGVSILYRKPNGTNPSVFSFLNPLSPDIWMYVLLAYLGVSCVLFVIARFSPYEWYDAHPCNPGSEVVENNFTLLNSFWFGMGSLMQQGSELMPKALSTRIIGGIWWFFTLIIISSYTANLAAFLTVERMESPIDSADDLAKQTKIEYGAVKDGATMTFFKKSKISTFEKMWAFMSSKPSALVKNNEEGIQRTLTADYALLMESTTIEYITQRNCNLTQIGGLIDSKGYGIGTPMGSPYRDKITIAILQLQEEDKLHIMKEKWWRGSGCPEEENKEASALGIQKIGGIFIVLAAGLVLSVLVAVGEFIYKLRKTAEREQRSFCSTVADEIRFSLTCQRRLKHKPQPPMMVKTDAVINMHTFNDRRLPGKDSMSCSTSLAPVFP

| Molecule | target or system | test | test system | conditions | scale | measurement | value |
| --- | --- | --- | --- | --- | --- | --- | --- |
| O=C(N[C@@H]1CCCc2c1[nH]c1ccc(Cl)cc21)c1ccccn1 | HEK293T | reporter gene, firefly luciferase |  | 24 h, together with: Marburg VP24 |  | IC50 | 0.01 µM |
| CC(C)=CCC/C(C)=C/CC/C(C)=C/CC/C(C)=C/CC1=C(C)C(=O)c2ccccc2C1=O | Spike glycoprotein | binding, BLI |  |  |  | Kd | 87.4 µM |
| N[C@@H](C[C@]1(C(=O)O)C[C@H]2OC[C@@H](O)[C@@H](O)[C@H]2O1)C(=O)O | Glutamate receptor ionotropic, kainate 3 (Rattus norvegicus, UniProt P42264) | binding, [3H]kainate displacement | HEK293T/17 membranes | together with: [3H]kainate |  | Ki | 3 µM |
| CCc1c(C(=O)C(N)=O)c2c(OCC(=O)O)cccc2n1Cc1ccccc1 |  |  | PB population, mouse | intravenous, 120 µg/mouse, 24 h, given 0 min after venom, together with: Daboia russelii venom 2.5 x LD50 i.p. |  | survival | 100% |
| Cn1cnc(Cn2c(=O)[nH]/c(=N\c3cc4cn(C)nc4cc3Cl)n(Cc3cc(F)c(F)cc3F)c2=O)n1 | Cytochrome P450 1A2 (CYP1A2, Homo sapiens, UniProt P05177) | enzyme activity, inhibitor | human liver microsomes | 0 min preincubation, pH 7.4, together with: phenacetin 90 µM |  | IC50 | > 100 µM |
| CC(=O)O[C@@H]1[C@H](N)[C@@H](OP(=O)(O)O)[C@@]2(C(=O)O)CS[C@@](O)(C(N)=O)[C@@H]1O2 | DNA-directed RNA polymerase subunit beta' / DNA-directed RNA polymerase subunit beta (rpoC/rpoB, Escherichia coli, UniProt P0A8T7+P0A8V2) | binding to elongation complex, 6-MI fluorescence titration | wild-type RNAP | 2′-deoxy RNA 3′-end Adenine |  | Kd | 2.1 ± 0.9 µM |
| CO[C@H]1/C=C/O[C@@]2(C)Oc3c(C)c(O)c4c(O)c(c(/C=N/N5CCN(C)CC5)c(O)c4c3C2=O)NC(=O)/C(C)=C\C=C\[C@H](C)[C@H](O)[C@@H](C)[C@@H](O)[C@@H](C)[C@H](OC(C)=O)[C@@H]1C | Spike glycoprotein | binding, BLI |  |  |  | Kd | 117 µM |
| B1 (cytochrome c peroxidase H52N) | cyanide binding | spectrophotometric titration |  | pH 6.0, 25 °C, together with: cyanide |  | Kd | 9400 µM |
| O=C1c2c(O)cccc2C([C@@H]2O[C@H](CO)[C@@H](O)[C@H](O)[C@H]2O)c2cc(CO)cc(O)c21 (stereo partly drawn) | Spike glycoprotein | binding, biolayer interferometry |  |  |  | Kd | 50.9 µM |
| B2 (cytochrome c peroxidase H52D) | cyanide binding | spectrophotometric titration |  | pH 6.0, 25 °C, together with: cyanide |  | Kd | 3000 µM |
| CC[C@H](C)[C@H](NC(=O)[C@H](CC(C)C)NC(=O)[C@H](Cc1c[nH]c2ccccc12)NC(=O)[C@H](CCC(N)=O)NC(=O)[C@@H](NC(=O)[C@H](Cc1ccccc1)NC(=O)[C@H](C)NC(=O)[C@H](CCCCNC(=O)COCCOCCNC(=O)COCCOCCNC(=O)CC[C@H](NC(=O)CCCCCCCCCCCCCCCCCCC(=O)O)C(=O)O)NC(=O)[C@H](CCC(N)=O)NC(=O)[C@H](C)NC(=O)[C@@H](NC(=O)[C@H](CCCCN)NC(=O)[C@H](CC(=O)O)NC(=O)[C@H](CC(C)C)NC(=O)C(C)(C)NC(=O)[C@@H](NC(=O)[C@H](CO)NC(=O)[C@H](Cc1ccc(O)cc1)NC(=O)[C@H](CC(=O)O)NC(=O)[C@H](CO)NC(=O)[C@@H](NC(=O)[C@H](Cc1ccccc1)NC(=O)[C@@H](NC(=O)CNC(=O)[C@H](CCC(=O)O)NC(=O)C(C)(C)NC(=O)[C@@H](N)Cc1ccc(O)cc1)[C@@H](C)O)[C@@H](C)O)[C@@H](C)CC)[C@@H](C)CC)C(C)C)C(=O)N[C@@H](C)C(=O)NCC(=O)NCC(=O)N1CCC[C@H]1C(=O)N[C@@H](CO)C(=O)N[C@@H](CO)C(=O)NCC(=O)N[C@@H](C)C(=O)N1CCC[C@H]1C(=O)N1CCC[C@H]1C(=O)N1CCC[C@H]1C(=O)N[C@@H](CO)C(N)=O |  |  | healthy subjects, single ascending dose | 0.5 mg, day 29 | relative to: baseline | systolic blood pressure change | 5.29 mmHg |
| Nc1ncnc2c([C@@H]3N[C@H](CO)[C@@H](O)[C@H]3O)c[nH]c12 | Zaire ebolavirus | viral replication | HeLa, Kikwit | 50 µM |  | inhibition | 99.9% |
| CSCC[C@H](N)C(=O)N[C@@H](CC(=O)O)C(=O)N[C@H](C(=O)N[C@@H](CCC(N)=O)C(=O)N[C@@H](Cc1c[nH]c2ccccc12)C(=O)N[C@@H](CCCNC(=N)N)C(=O)N[C@@H](CCCNC(=N)N)C(=O)N[C@@H](Cc1c[nH]c2ccccc12)C(=O)O)[C@@H](C)O | Toxin B, glucosyltransferase domain (Clostridioides difficile, UniProt A0A9R0CDJ3) | glucosyltransferase activity, inhibitor, UDP-Glo glucosyltransferase luminescence |  | together with: Rac1 and UDP-glucose |  | Ki | 729 µM |
| O=C(O)[C@H]1O[C@@H](Oc2cc(O)c3c(=O)cc(-c4ccc(O)c(O)c4)oc3c2)[C@H](O)[C@@H](O)[C@@H]1O | Spike glycoprotein | binding, biolayer interferometry |  |  |  | Kd | 59.5 µM |
| CNC(=O)[C@@H](NC(=O)[C@H](CC(C)C)[C@H](O)C(=O)NO)C(C)(C)C | human fibrinogen | SDS-PAGE | Daboia russelii | concentration not given, unit not given, together with: TN venom | relative to: untreated fibrinogen | remaining fibrinogen Bβ chain | 0.419 |
| CC[C@H](C)[C@H](NC(=O)[C@H](CC(C)C)NC(=O)[C@H](CO)NC(=O)[C@H](Cc1c[nH]cn1)NC(=O)[C@@H](NC(=O)[C@H](CC(C)C)NC(=O)[C@H](CO)NC(=O)[C@@H](NC(=O)[C@H](Cc1ccc(O)cc1)NC(=O)[C@H](CC(N)=O)NC(=O)[C@H](CC(N)=O)NC(=O)[C@@H](NC(=O)[C@H](CCC(=O)O)NC(=O)[C@H](CCCNC(=N)N)NC(=O)[C@H](CC(=O)O)NC(=O)[C@H](Cc1c[nH]c2ccccc12)NC(=O)[C@H](CCC(=O)O)NC(=O)[C@H](CCSC)NC(=O)[C@H](Cc1c[nH]c2ccccc12)NC(C)=O)[C@@H](C)CC)[C@@H](C)O)[C@@H](C)CC)C(=O)N[C@@H](CCC(=O)O)C(=O)N[C@@H](CCC(=O)O)C(=O)N[C@@H](CO)C(=O)N[C@@H](CCC(N)=O)C(=O)N[C@@H](CC(N)=O)C(=O)N[C@@H](CCC(N)=O)C(=O)N[C@@H](CCC(N)=O)C(=O)N[C@@H](CCC(=O)O)C(=O)N[C@@H](CCCCN)C(=O)N[C@@H](CC(N)=O)C(=O)N[C@@H](CCC(=O)O)C(=O)N[C@@H](CCC(N)=O)C(=O)N[C@@H](CCC(=O)O)C(=O)N[C@@H](CC(C)C)C(=O)N[C@@H](CC(C)C)C(=O)NCC(=O)N[C@@H](CO)C(=O)NCC(=O)N[C@@H](CSCC(=O)O[C@H]1CC[C@@]2(C)C(=CC[C@H]3[C@@H]4CC[C@H]([C@H](C)CCCC(C)(C)O)[C@@]4(C)CC[C@@H]32)C1)C(N)=O |  | membrane binding, di-8-ANEPPS dipole potential | POPC LUVs |  |  | Kd | 11 ± 7.7 µM |
| COc1ccc([C@@H](O)c2cc(-c3ncnc4cc(N5CCOCC5)ccc34)c(F)cc2Cl)nn1 |  |  | patients, advanced solid tumours | oral, 200 mg once daily, 10 dosing days, treatment-emergent, together with: avelumab, radiotherapy |  | injury, poisoning, procedural complications incidence | 1% |
| Cn1cnc(Cn2c(=O)[nH]/c(=N\c3cc4cn(C)nc4cc3Cl)n(Cc3cc(F)c(F)cc3F)c2=O)n1 |  |  | human, mild renal impairment, plasma | oral, 375 mg single dose |  | terminal elimination rate constant | 3.69e-06 s⁻¹ |

Repeated from above:
| Molecule | target or system | test | test system | conditions | scale | measurement | value |
| --- | --- | --- | --- | --- | --- | --- | --- |
| O=C1c2c(O)cccc2C([C@@H]2O[C@H](CO)[C@@H](O)[C@H](O)[C@H]2O)c2cc(CO)cc(O)c21 (stereo partly drawn) | Spike glycoprotein | binding, biolayer interferometry |  |  |  | Kd | 50.9 µM |
